Measured values pooled from the literature.
Protocols differ between the studies behind these lines. Numbers after ± are the reported error.
Cell line: HeLa

The mitochondria number of CC1=CC=c2ccc3c4c2[N]1[Re](=[C]=O)(=[C]=O)(=[C]=O)([C]#[N+]c1c(C)cccc1C)[N]4C(C)=CC=3.O=S(=O)([O-])C(F)(F)F is reported as 2 fold (MitoTracker microscopy; 10 µM, 14 min; reference: untreated).
With CC=C(C)C(=O)OC1C(O)C2OC(COC(=O)CCCCCCCCCC(CCCCC)OC3OC(C)C(OC(C)=O)C(O)C3O2)C1OC(=O)C=Cc1ccccc1 (stereo not drawn) the selectivity index was 2.06 (reference: IC50 MCF-10A over IC50 HeLa).
CC[C@H](C)[C@@H]([C@@H](CC(=O)N1CCC[C@H]1[C@H](OC)[C@@H](C)C(=O)NC(Cc1ccccc1)C(C)OC)OC)N(C)C(=O)[C@@H](NC(=O)[C@H]([C@@H](C)CC)N(C)C)C(C)C (stereo partly drawn) — result for “lowest effective concentration”: 0.1 nM (tubulin network disruption, immunofluorescence microscopy, measured: alpha-tubulin).
CC[C@H](C)[C@@H]([C@@H](CC(=O)N1CCC[C@H]1[C@H](OC)[C@@H](C)C(=O)N[C@@H](Cc1ccccc1)C(=O)O)OC)N(C)C(=O)[C@@H](NC(=O)[C@H](C(C)C)N(C)C(=O)CCSSC[C@H](NC(=O)[C@@H](NC(=O)CNC(=O)[C@H](CCC(=O)O)NC(=O)[C@H](CC(=O)O)NC(=O)[C@H](C)NC(=O)[C@H](CC(=O)O)NC(=O)[C@@H](NC(=O)[C@H](CC(C)C)NC(=O)[C@H](CC(C)C)NC(=O)[C@H](C)NC(=O)[C@H](CC(C)C)NC(=O)[C@H](CC(=O)O)NC(=O)[C@H](CC(C)C)NC(=O)[C@H](CC(C)C)NC(=O)[C@H](CC(C)C)NC(=O)[C@H](CC(C)C)NC(=O)[C@@H]1CCCN1C(=O)[C@@H](NC(=O)[C@@H](NC(=O)[C@H](Cc1ccccc1)NC(=O)[C@H](CC(C)C)NC(=O)[C@H](Cc1c[nH]c2ccccc12)NC(=O)[C@H](CC(=O)O)NC(=O)[C@H](C)NC(=O)[C@H](Cc1ccc(O)cc1)NC(=O)[C@H](CCCNC(=N)N)NC(=O)[C@H](C)NC(=O)[C@H](Cc1c[nH]c2ccccc12)NC(=O)[C@H](Cc1ccc(O)cc1)NC(=O)[C@@H](NC(=O)[C@@H]1CCCN1C(=O)[C@H](CC(N)=O)NC(=O)[C@H](CCC(N)=O)NC(=O)[C@H](CCC(=O)O)NC(=O)CNC(=O)CN)[C@@H](C)CC)[C@@H](C)O)[C@@H](C)O)C(C)C)[C@@H](C)O)C(=O)NCC(N)=O)C(C)C — result for “IC50 fold decrease”: 5 fold (MTT; pH 6.0; reference: without Ca2+ over 1.2 mM Ca2+).
For CC[C@H](C)[C@@H]([C@@H](CC(=O)N1CCC[C@H]1[C@H](OC)[C@@H](C)C(=O)N[C@H](C)[C@@H](O)c1ccccc1)OC)N(C)C(=O)[C@@H](NC(=O)[C@@H](NC)C(C)C)C(C)C, the potency ratio was 10 fold (cytotoxicity; reference: compound over MMAF, higher = more active than MMAF).
CCCCNC(P(=O)(O)O)P(=O)(O)O: “cellular cholesterol reduction” 15% (Amplex Red; 100 µM, 24 h).
The γH2AX-positive cells of CC(=O)N[C@@H](CCCNC(=N)N)C(=O)N[C@@H](CCCNC(=N)N)C(=O)N[C@@H](CCCNC(=N)N)C(=O)N[C@@H](CCCNC(=N)N)C(=O)N[C@@H](CCCNC(=N)N)C(=O)N[C@@H](CCCNC(=N)N)C(=O)N[C@@H](CCCNC(=N)N)C(=O)N[C@@H](CCCNC(=N)N)C(=O)N[C@@H](CCCNC(=N)N)C(=O)N[C@@H](CCCNC(=N)N)C(=O)NCC(=O)N[C@@H](COP(=O)(O)O)C(=O)N1CCC[C@H]1C(=O)N[C@H](C(=O)N[C@@H](Cc1ccccc1)C(=O)O)[C@@H](C)O is reported as 47.1 ± 9.85% (DNA damage, immunostaining; 10 µM, 30 min, together with: ionizing radiation 10 Gy).
Under “cells with nuclear fragmentation”, CC(C)C12OC1C1OC13C1(C)CCC4=C(COC4=O)C1CC1OC13C2OC(=O)CCCOC1OC(CO)C(O)C(O)C1O (stereo not drawn) is recorded as 53% (Hoechst staining; 3 µM, 6% DMSO).
Cc1ccc2ccc3ccc(C)nc3c2n1.O.[99Tc+].[C-]#[O+].[C-]#[O+].[C-]#[O+]: apoptotic cells “no effect” (annexin V/PI; concentration not given, together with: Z-VAD-FMK).

For quick reference, copied from above:
The mitochondria number of CC1=CC=c2ccc3c4c2[N]1[Re](=[C]=O)(=[C]=O)(=[C]=O)([C]#[N+]c1c(C)cccc1C)[N]4C(C)=CC=3.O=S(=O)([O-])C(F)(F)F is reported as 2 fold (MitoTracker microscopy; 10 µM, 14 min; reference: untreated).
